Experimental data collected from several papers.
Parts stem from different laboratories: compare values within a part only. Positions count from the first letter of the parent shown.

Study 1
Target: Sal-like protein 4, full length isoform A (SALL4, Homo sapiens, UniProt Q9UJQ4, residues 1-1053)
Chain of UniProt Q9UJQ4 (whole entry, looked up): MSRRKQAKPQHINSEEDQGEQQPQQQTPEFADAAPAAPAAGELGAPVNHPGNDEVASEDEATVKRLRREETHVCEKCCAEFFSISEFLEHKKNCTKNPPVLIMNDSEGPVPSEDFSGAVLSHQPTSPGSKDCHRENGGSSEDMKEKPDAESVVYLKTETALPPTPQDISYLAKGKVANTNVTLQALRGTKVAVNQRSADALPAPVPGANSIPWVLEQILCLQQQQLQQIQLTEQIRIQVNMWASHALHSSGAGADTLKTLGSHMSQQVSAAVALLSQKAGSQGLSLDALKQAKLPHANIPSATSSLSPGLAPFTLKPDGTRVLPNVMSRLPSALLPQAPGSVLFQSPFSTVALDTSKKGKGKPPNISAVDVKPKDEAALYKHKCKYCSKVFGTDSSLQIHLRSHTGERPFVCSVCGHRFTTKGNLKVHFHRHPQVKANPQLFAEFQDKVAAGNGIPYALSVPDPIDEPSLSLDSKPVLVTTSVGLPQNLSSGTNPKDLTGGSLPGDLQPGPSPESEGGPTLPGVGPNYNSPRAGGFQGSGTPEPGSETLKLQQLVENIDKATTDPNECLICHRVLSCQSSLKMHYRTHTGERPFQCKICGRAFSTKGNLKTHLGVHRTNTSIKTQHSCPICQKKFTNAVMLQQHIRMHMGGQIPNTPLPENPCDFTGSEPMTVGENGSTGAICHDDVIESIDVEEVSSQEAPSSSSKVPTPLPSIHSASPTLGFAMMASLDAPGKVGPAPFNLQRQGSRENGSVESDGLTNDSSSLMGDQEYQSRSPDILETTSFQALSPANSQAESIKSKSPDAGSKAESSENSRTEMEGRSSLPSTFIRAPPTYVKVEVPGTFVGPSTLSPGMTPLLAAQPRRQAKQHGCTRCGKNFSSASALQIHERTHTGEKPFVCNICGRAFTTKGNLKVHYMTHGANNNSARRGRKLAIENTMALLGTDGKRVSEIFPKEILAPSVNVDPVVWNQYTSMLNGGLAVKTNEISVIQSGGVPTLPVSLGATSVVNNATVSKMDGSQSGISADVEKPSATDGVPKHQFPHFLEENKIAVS
Technique: universal PBM
Form: double-stranded DNA, one strand shown
Matrix: in vitro
Concentration: 600 nM
Notes: 8-mer, flanks averaged, mean of replicates
Direction: higher = stronger binding
Oligonucleotide | E-score
ACGGAATC | -0.0169
CGATGAAC | -0.119
ATGAGTAC | 0.201
AATATCGA | 0.3
GTATGAGA | 0.2
ACTATTGC | 0.246
AAGCGAAT | 0.0326
ACCAAGGG | -0.073
GGTGACTA | -0.0437
CCCAGTCA | -0.242
AGTATCAC | 0.075
AATGAAAT | 0.326
AGTGTACG | -0.0642
GAGAATTA | 0.264
AAACTCAC | 0.0749
GAGGCTAA | 0.0101
TTCAACAA | 0.213
GCACGCCC | -0.319
AGGGGGCG | -0.202
CAATCGCC | -0.122
ACGGGCGA | -0.273

Study 2
Target: RNA binding protein fox-1 homolog 2, RRM domain, GST-SBP tag (RBFOX2, Homo sapiens, UniProt O43251-10, residues 100-194)
Technique: RNA Bind-n-Seq
Form: RNA
Matrix: in vitro
Concentration: 365 nM
Notes: natural RNA segment, single round, ends assumed
Baseline: no-protein control
Direction: higher = stronger binding
Constant ends, left off below: GGGAGUUCUACAGUCCGACGAUC … UGGAAUUCUCGGGUGCCAA
Residues (chain): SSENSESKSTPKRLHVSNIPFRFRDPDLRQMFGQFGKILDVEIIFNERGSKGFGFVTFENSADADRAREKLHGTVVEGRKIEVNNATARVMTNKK
Oligonucleotide | RBNS enrichment (R)
GACAAGUGUUUGGGACUAAUUGAGAAACAAGCCAGCUUAGAUGGAAGCUGUGCUGUGUGACUAUUAGAACUAGGCAGGACCAGUGCUCCUCUUUUAUAGCUAGCAUGGGA | 5.61
AUGGAUAAAAUCAUUAAAGGGAAGCUGGUGCUGCCCCCCUACCUCACCCCGGAUGCCCGGGACCUUGCCAAAAAGUUUCUGAAGCGGAACCCCACUCAGCGAAUUGGGGG | 0.373
ACAGCGCAAUGCUGCCACCACCCAGUUUCUUCAUCAGAAGACAAGGGAACGAGAAAACUGCUGUUCGUUUGUAUUUGUGAACUUGGCUGUAAUCUGGUAUGCCAUAGGAU | 0.429
UUCAACAAGAGUAAAUAUUGUCACAACACUGAACCUCUGGCUAGAGGACAUAUUCACAGUGAACAUAACUGUAACAUAUAUGAAAGGCUUCUGGGACUUGAAAUCAAAUG | 0.368
AGGGGUGUAGGUUCGAGGAAGGAGAACAUCAUUGGAAUGGAGGAGAGUGCUGCAGAGUCUAUGUCUGCUGACCACCUGUGCUACCACUUAACAAUGAGCAUAGCUGGUCU | 0.775
UGUACUUUGAAGAAUGGAAUUGUAUUAGUCAGCCUGUUAAUGCCACUUCAGAGUUUGGGGUUUUGUCUUGAUUGUAGAUUGGCCCAGAAUUGCAUUCUGAUGAAUAAAGG | 2.32
UGUAAGUAGGUACACUUGUGACGUCACUGACCUAGCGUACCUUUCCUUUUCAUAUCUACACUGACCUUAACUUAUAAAAAAAACAGAAAAGAAAAGCAAGUUUUAUAUAU | 0.617
GUGGCUGUCUCAGACACACCAGAAGAGGGCAUCAGAUCCCAUUACAGAUGGUUGUGAGCCACCAUGUGGUUGCUGGGAAUUGAACUCAGGACCUUUGGAUAAGAAACCAG | 0.353

Study 3
Target: PABPC1L2, full length, GST fusion (mouse, UniProt A0ABA7IW68)
Technique: RNAcompete
Form: RNA
Matrix: in vitro
Concentration: 20 nM
Notes: 7-mer, probes averaged, single round
Baseline: mean of 7-mers
Direction: higher = stronger binding
Residues (chain): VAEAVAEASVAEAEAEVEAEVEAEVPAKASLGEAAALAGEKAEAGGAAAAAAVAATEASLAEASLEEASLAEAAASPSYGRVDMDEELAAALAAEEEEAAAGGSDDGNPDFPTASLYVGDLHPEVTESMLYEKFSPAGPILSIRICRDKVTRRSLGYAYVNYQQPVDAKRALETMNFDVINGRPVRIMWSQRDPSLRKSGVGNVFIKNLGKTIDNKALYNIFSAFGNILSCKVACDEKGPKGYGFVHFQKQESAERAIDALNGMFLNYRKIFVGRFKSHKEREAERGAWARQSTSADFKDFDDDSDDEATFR
Oligonucleotide | 7-mer Z-score
ACACUGU | -0.139
AUGUCCA | -0.151
AUGUGCU | -0.0971
CUAUAGU | -0.403
CCUAGAG | 0.0714
CACUCUG | -0.329
GGUCUAA | 0.0261
AUUAAGA | 0.182
AGUUGAA | -0.0681
GACUAGC | -0.144
CAAGCUG | -0.128
CCUGUUU | -0.561
UCUCACU | -0.233
GCUGCGC | -0.316
GUUCAUC | -0.469
UGGCUGC | -0.0138
AUUGUAC | -0.229
UUCCGGA | -0.315
GUCUGUU | -0.483
GGGGGGG | 0.296
AGUAACU | -0.0989
GGGGUGA | 0.303
GAAUACA | 0.157
UGACUAU | -0.126
GUGAUUU | -0.224

Study 4
Target: CCND3, cyclin fold, Cln2 fusion (human)
Technique: yeast growth competition, sequencing
Matrix: yeast
Notes: weak parent motif
Baseline: not given
Direction: higher = stronger binding
Starting sequence: CDKN1B docking peptide (human); PSACRNLFGPVDH
Substitution | normalised enrichment score
S2P | 0.12
L7A | 0.121
A3H | 0.113
C4E | 0.131
S2N | 0.0864
V11G | 0.132
D12E | 0.0641
G9M | 0.105
N6G | 0.0929
N6E | 0.118
G9C | 0.106
S2K | 0.141
A3F | 0.175
A3R | 0.13
L7W | 0.0853
S2Y | 0.0786

Study 5
Target: ABI1, truncated, D143A, DHFR fusion (Arabidopsis thaliana)
Technique: DHFR PCA, deep sequencing
Matrix: yeast
Notes: methotrexate growth selection, single substitutions
Added: (+)-ABA 0.0091 µM
Baseline: wild-type fitted maximum
Direction: higher = stronger binding
Starting sequence: PYL1, truncated, DHFR fusion (Arabidopsis thaliana); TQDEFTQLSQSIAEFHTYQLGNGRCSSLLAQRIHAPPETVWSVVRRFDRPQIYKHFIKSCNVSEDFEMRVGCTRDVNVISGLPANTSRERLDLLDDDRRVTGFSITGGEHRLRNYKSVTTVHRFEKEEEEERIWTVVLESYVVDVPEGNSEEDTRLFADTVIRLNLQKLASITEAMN; partner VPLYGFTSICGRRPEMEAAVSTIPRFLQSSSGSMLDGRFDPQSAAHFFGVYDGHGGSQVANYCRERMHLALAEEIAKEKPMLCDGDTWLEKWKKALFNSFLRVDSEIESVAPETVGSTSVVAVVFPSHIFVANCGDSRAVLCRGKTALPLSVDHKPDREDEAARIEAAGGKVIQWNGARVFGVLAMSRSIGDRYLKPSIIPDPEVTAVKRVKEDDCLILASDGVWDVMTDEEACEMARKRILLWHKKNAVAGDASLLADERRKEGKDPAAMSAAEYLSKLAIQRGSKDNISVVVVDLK
Substitution | relative binding score
R88S | 5.37%
R74S | -2.11%
L82W | 52.7%
L166S | -2.8%
Y141N | -3.07%
I162W | -2.71%
S80V | 10.9%
T120D | -5.7%
R45H | -1.84%
R123L | -2.42%
D97W | -4.59%
F103Y | 65.2%
T39K | 8.97%
I79V | 47.2%
R90W | -4.65%
S42N | 29.8%
F124C | 25.6%
N177R | 15.8%
G102A | 7.49%

Mixed results
Molecule | target | assay | test system | conditions | scale | measurement | value
PhoQ, residues 284 288 289 292 302 303 TSTLRA | PhoP, residues 12 14 15 18 19 DLLYY (Escherichia coli, UniProt P23836) | Sort-seq, refers to: YFP reporter | E. coli | PhoQ-PhoP variant library, added: 10 µM Mg2+ | baseline: high Mg2+ state, higher = stronger signaling | fold induction | 0.293

A few entries again (study 5):
Substitution | relative binding score
D97W | -4.59%
T39K | 8.97%
R74S | -2.11%
R45H | -1.84%
I162W | -2.71%
